Experimental data pooled from the literature.
Lines come from different studies, so protocols differ. ± gives the spread as reported.

| Structure (SMILES) | test | system | setting | scale | quantity | result |
| --- | --- | --- | --- | --- | --- | --- |
| Cc1cc(O)cc(C)c1C[C@H](NC(=O)[C@H](N)CCCNC(=N)N)C(=O)N[C@@H](CCCCN)C(=O)N[C@@H](Cc1ccccc1)C(N)=O |  | ICR mice, acute kidney injury, kidney | 2 mg/kg, 4 h |  | tissue concentration | 740 ± 40 ng/g |
| CCCC[C@H](NC(=O)CN1CCC(NC(=O)CN2CCC(NC(=O)CN3CCN(CC(=O)O)CCN(CC(=O)O)CCN(CC(=O)O)CC3)CC2)CC1)C(=O)N[C@H]1CC(=O)NCCCC[C@@H](C(N)=O)NC(=O)[C@H](Cc2c[nH]c3ccccc23)NC(=O)[C@H](CCCNC(=N)N)NC(=O)[C@@H](Cc2ccccc2)NC(=O)[C@H](Cc2c[nH]cn2)NC1=O [gallium-68 labelled] |  | C57BL/6J mice male B16-F10 tumour, heart | 1 h post injection, unblocked |  | tissue uptake | 0.2 %ID/g |
| NC(=O)[C@@H](CCCCNC(=O)CNC(=O)CCC(=O)NCCc1c[nH]cn1)NC(=O)[C@@H](Cc1ccc(O)cc1)NC(=O)[C@@H](CCCCNC(=O)CNC(=O)CCC(=O)NCCc1c[nH]cn1)NC(=O)Cc1ccc(CN2CCN(CC(=O)O)CCN(CC(=O)O)CC2)cc1 [fluorine-18 labelled] |  | tumour-bearing nude mice | intravenous, 1 h, TF2 pretargeting | reference: tumour over blood | tissue ratio | 110 ± 43 |
| COc1ccc(C)cc1NC(=O)OC1CC2CCCC(C1)N2Cc1ccc(CC[18F])cc1 (stereo not shown) |  | BALB/c mice, EMT6 tumour, liver | 1 h |  | tissue uptake | 23.4 ± 2 %ID/g |
| CC(C)C[C@@H](NC(=O)[C@@H](CCCNC(=N)N)NC(=O)[C@@H](Cc1c[nH]cn1)NC(=O)[C@@H](Cc1c[nH]c2ccccc12)NC(=O)[C@@H](Cc1c[nH]cn1)NC(=O)[C@@H](Cc1ccccc1)NC(=O)[C@H](NC(=O)[C@@H](Cc1ccc(O)cc1)NC(=O)CNC(=O)CNC(=O)CCOCCOCCOCCNC(=O)CN1CCN(CC(=O)O)CCN(CC(=O)O)CC1)[C@H](C)O)C(=O)N[C@H](CC(N)=O)C(=O)N1CCC[C@@H]1C(=O)O [gallium-68 labelled] |  | C57BL/6 mice, male | intravenous, 1.85 MBq, 60 min | reference: tumour over muscle | tissue ratio | 11.1 ± 2.18 |
| C/C=C/C=C/C/C=C/CCCCCCCc1cccc(O)c1O |  | female Kunming mice, tumour-bearing, spleen | intravenous, 10 mg/kg, 12 h |  | tissue concentration | 2070 ± 130 ng/g |
| CCCC[C@H](NC(=O)CCOCCOCCNC(=O)CN1CCN(CC(=O)O)CCN(CC(=O)O)CCN(CC(=O)O)CC1)C(=O)N[C@H]1CC(=O)NCCCC[C@@H](C(N)=O)NC(=O)[C@H](Cc2c[nH]c3ccccc23)NC(=O)[C@H](CCCNC(=N)N)NC(=O)[C@@H](Cc2ccccc2)NC(=O)[C@H](Cc2c[nH]cn2)NC1=O [gallium-68 labelled] |  | C57BL/6J mice male B16-F10 tumour, muscle | 1 h post injection, unblocked |  | tissue uptake | 0.1 %ID/g |
| Cn1cc(-c2cccc(CN3CCC4(CC3)COc3c4ccc4c3CN([C@H]3CCC(=O)NC3=O)C4=O)c2)cn1 |  | Crbn I391V mice, spleen and thymus | dose not given, 24 h |  | tissue concentration decrease | > 90% |
| COc1cc(C(=O)NCCOCCOCCOCCNC(=O)c2ccc([18F])nc2)ccc1NC(=O)C1NC(CC(C)(C)C)C(C#N)(c2ccc(Cl)cc2F)C1c1cccc(Cl)c1F (stereo not shown) |  | athymic male mice, HepG2 xenograft, bladder | 4 h |  | tissue uptake | 1.6 ± 1.96 %ID/g |
| C[C@]12CC[C@H](OCC[18F])C[C@H]1CC[C@@H]1[C@@H]2CC[C@]2(C)[C@@H](c3ccc(=O)oc3)CC[C@]12O |  | male BALB/c nude mice, HepG2 xenograft, liver | intravenous, 7.4 MBq, 240 min |  | tissue uptake | 7.51 ± 1.17 %ID/g |
| COC(=O)C[C@](O)(CCCC(C)(C)OC(C)=O)C(=O)O[C@@H]1C(OC)=C[C@]23CCCN2CCc2cc4c(cc2[C@H]13)OCO4 |  | CD1 mice, esophagus | oral, 1 mg/kg, 24 h |  | tissue concentration | not detected |
| [3H]c1sc(C)nc1C=C(C)C1CC2C(CCCC(C)C(O)C(C)C(=O)C(C)(C)C(O)CC(=O)O1)N2CCO (stereo not shown) | LC-MS/MS | CD2F1 mice tumour-bearing, heart | intravenous, 2.2 nmol/kg, 6 h |  | tissue concentration | 610 ± 170 ng/g |
| CC(C)C[C@H]1NC(=O)[C@H](NC(=O)CN)CSSC[C@H]2NC(=O)[C@H]3CSSC[C@H](C(=O)N[C@H](CC(N)=O)C(=O)N[C@H](Cc4ccccc4)C(=O)N[C@H](CO)C(=O)N[C@H](Cc4ccccc4)C(N)=O)NC(=O)[C@@H](CC(C)C)NC(=O)[C@@H](CCCCN)NC(=O)[C@@H](Cc4ccccc4)NC(=O)[C@@H](CC(C)C)NC(=O)[C@@H](CCCCN)NC(=O)[C@@H](CO)NC(=O)[C@@H](CSSC[C@@H](NC(=O)[C@@H](CCCCN)NC(=O)[C@@H](Cc4c[nH]c5ccccc45)NC(=O)[C@@H](Cc4c[nH]c5ccccc45)NC(=O)[C@@H](Cc4ccccc4)NC(=O)[C@@H](CCC(=O)O)NC1=O)C(=O)N[C@H](CC(N)=O)C(=O)N1CCC[C@@H]1C(=O)N[C@H](CC(N)=O)C(=O)N[C@H](CC(=O)O)C(=O)N[C@H](CC(=O)O)C(=O)N[C@H](CCCCN)C(=O)N3)NC(=O)[C@@H](CCCCN)NC(=O)[C@@H](CC(C)C)NC(=O)[C@@H](CCCCN)NC(=O)[C@H]1CCCN1C(=O)[C@@H](CCCNC(=N)N)NC2=O | LC-MS/MS | D2.mdx mice, muscle | subcutaneous, dose not given |  | tissue concentration at chronic dosing | 500 to 2000 nM |

For quick reference, copied from above:
| Structure (SMILES) | test | system | setting | scale | quantity | result |
| --- | --- | --- | --- | --- | --- | --- |
| C[C@]12CC[C@H](OCC[18F])C[C@H]1CC[C@@H]1[C@@H]2CC[C@]2(C)[C@@H](c3ccc(=O)oc3)CC[C@]12O |  | male BALB/c nude mice, HepG2 xenograft, liver | intravenous, 7.4 MBq, 240 min |  | tissue uptake | 7.51 ± 1.17 %ID/g |
